Measured values gathered from unrelated publications.
Values joined by “and” are separate records of one study, mostly repeats; a detail may differ. Numbers after ± are the reported error. Converted amounts (≈) assume the structure as drawn.
Sequence of UniProt Q15349 (whole entry, looked up): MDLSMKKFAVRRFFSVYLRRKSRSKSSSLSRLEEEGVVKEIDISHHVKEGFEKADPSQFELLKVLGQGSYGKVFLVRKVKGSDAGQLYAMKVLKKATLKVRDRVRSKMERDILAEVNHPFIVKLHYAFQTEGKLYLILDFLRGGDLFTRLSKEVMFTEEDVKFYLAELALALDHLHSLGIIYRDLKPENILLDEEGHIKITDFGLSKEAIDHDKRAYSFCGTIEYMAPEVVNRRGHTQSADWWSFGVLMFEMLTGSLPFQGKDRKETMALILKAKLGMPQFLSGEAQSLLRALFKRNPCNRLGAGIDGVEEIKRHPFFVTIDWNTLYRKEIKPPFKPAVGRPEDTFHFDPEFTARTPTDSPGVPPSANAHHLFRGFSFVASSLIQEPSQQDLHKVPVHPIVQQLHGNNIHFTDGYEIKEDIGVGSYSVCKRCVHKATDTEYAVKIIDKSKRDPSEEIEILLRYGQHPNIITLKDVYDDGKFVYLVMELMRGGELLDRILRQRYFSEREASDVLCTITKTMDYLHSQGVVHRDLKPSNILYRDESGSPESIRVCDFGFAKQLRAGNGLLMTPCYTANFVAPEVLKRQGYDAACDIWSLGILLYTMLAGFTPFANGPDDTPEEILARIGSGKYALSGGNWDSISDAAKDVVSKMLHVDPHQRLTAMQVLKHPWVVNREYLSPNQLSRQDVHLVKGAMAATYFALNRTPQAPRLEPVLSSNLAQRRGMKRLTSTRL
Sequence of UniProt Q12852 (whole entry, looked up): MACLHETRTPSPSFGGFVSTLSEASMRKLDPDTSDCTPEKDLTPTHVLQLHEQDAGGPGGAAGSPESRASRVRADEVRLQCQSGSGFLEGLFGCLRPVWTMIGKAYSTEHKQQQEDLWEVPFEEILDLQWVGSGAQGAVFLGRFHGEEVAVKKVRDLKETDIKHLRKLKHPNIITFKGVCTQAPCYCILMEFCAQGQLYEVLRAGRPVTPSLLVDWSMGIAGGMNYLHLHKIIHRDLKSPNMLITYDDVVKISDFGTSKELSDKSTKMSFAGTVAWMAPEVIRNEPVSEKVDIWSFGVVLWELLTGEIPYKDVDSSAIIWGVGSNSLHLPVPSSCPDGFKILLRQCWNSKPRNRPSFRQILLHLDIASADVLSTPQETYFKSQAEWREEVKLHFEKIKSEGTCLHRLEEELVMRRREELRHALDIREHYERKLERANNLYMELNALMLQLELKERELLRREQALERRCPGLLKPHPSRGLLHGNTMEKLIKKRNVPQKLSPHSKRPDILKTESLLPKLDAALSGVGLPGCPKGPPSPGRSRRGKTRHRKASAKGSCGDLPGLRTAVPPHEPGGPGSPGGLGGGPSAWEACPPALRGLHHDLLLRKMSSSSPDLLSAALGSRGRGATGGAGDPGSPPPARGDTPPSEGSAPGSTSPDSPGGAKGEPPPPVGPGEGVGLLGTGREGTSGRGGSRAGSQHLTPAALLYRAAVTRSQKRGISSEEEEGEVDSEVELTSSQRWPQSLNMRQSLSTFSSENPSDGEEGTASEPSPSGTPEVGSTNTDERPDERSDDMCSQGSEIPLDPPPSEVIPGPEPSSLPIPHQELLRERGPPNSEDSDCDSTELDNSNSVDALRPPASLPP
Sequence of UniProt P34981 (whole entry, looked up): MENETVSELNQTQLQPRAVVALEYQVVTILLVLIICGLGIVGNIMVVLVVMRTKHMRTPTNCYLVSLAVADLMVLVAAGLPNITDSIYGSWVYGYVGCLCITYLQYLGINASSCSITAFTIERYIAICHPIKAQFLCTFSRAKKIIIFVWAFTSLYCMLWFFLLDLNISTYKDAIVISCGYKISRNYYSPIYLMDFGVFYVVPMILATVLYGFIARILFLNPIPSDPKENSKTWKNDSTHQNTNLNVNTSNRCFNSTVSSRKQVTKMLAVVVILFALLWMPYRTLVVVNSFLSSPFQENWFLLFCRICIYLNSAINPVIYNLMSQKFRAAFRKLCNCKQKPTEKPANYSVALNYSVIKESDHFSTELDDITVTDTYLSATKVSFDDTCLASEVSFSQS
Sequence of UniProt P41146 (whole entry, looked up): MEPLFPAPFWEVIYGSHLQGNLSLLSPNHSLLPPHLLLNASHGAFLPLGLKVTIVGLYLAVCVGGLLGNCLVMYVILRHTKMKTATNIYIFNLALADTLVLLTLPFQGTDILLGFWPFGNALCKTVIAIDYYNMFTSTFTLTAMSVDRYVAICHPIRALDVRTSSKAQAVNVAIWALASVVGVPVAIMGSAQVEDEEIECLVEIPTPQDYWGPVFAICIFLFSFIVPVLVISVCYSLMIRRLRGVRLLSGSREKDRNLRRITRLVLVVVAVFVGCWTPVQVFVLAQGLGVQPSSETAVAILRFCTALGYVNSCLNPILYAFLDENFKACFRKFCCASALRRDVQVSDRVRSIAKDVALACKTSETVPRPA

NCCO.O=C(O)C(Cl)Cl  herbicidal inhibition (Eleusine indica; 15 mg/mL, 21 days, post-emergence, greenhouse): 0%
CC(C)SC(SC(C)C)c1ccc(OCCNS(=O)(=O)c2ccc(Br)cc2)c(Cl)c1  EC50 (Tobacco mosaic virus; protective activity; plant in vivo): 672.3 ± 3.2 µg/mL (≈ 1220 µM)
Cc1cc(C(=O)Nc2nc3cccc(C)c3n2[C@H]2CCCCN(C(=O)/C=C/CN(C)C)C2)ccn1  EC50 fold shift (Trypanosoma brucei; cell growth, Alamar Blue; 2T1 overexpressing Tb927.11.10520; relative to: parental 2T1): 1.52 fold and 0.75 fold
CCN(CC)Cc1cc(Nc2c(C3CCCC3)c(C)nc3cc(Cl)ccc23)ccc1O  inhibition (Dengue virus type 2; viral replication, Rluc reporter replicon; BHK-21 DENV2 replicon cells; 50 µM, 24 h): 100%
CCCCCCCCCCCC(=O)C(C)C(=O)N1CCC[C@H]1C(=O)NC(C)(C)C(=O)NC(C)(C)C(=O)NC(C)(C)C(=O)N[C@](C)(CC)C(=O)NCCC(=O)N[C@@H](C)C(=O)N[C@](C)(CC)C(=O)N[C@@H](C)C(=O)N[C@@H](CC(C)C)C(=O)N[C@](C)(CC)C(=O)NCCC(=O)N[C@@H](C)C(=O)N[C@](C)(CC)C(=O)NCCC(=O)N[C@@H](C)C(=O)NC(C)(C)C(=O)NC(C)(C)C(=O)NC(C)(C)C(=O)N[C@@H](C)C(=O)N[C@@H](CC(=O)O)C(=O)O (stereo partly drawn)  unbound compound (MS peak area) (chitin; pull-down, LC-MS; 1 h, pH 7.0, 30 °C, with: chitin 1 mg/mL; higher = less bound): 1610 a.u. and 1540 a.u.
CC(C)(C)C(=O)OCOP(=O)(OCOC(=O)C(C)(C)C)C1CCCN(O)C1=O (stereo not drawn)  TGI (SN12C): 14.1 µM
O=C1NC2(CC2)COc2ncc(F)cc2[C@H]2COCCN2c2ccn3ncc1c3n2  serum LDH activity (Sprague-Dawley rat, male, serum; oral, 5 mg/kg/day, end of treatment, 4-week subacute toxicity): 654 ± 274 U/L
COc1cc(C(SC(C)C)SC(C)C)ccc1OCCNS(=O)(=O)c1ccc(F)cc1  EC50 (Tobacco mosaic virus; curative activity; plant in vivo): 479.3 ± 1.3 µg/mL (≈ 983 µM)
CN1C(=O)C(C2C3=C(CCCC3=O)Oc3ccc(Br)cc32)C(=O)N(C)C1=O (stereo not drawn)  mean lipid content (3T3-L1 preadipocytes; adipogenesis, Oil Red O staining; IC20, 14 days): 0.967 OD492
C[n+]1ccc(Nc2ccc(O)cc2)c2ccc(Cl)cc21.[I-]  inhibition (West Nile virus; viral replication, Rluc reporter replicon; Vero WNV replicon cells; 50 µM, 24 h): 84.5 ± 5.4%
COc1ccccc1-c1n[nH]c2nc(N[C@H]3CC[C@H](NS(=O)(=O)CC(C)C)CC3)ncc12  relative abundance (bead binding, competition bead pull-down, item: LINJ.35.1490; Leishmania donovani extract; 10 µM; relative to: vehicle): 0.87
CC(C)CC(C(=O)N1CC2(CC1C#N)C(=O)Nc1ccccc12)N(C)C(=O)c1cc2c(F)cc(F)c(F)c2[nH]1 (stereo not drawn)  IC50 (trypsin (human); enzyme activity, inhibitor): > 100 µM
CN(C)[C@H]1C[C@@]23CC[C@@]4(O2)C(=CC[C@]2(C)[C@@H](c5ccc6ccncc6c5)CC[C@H]24)C=C3[C@@H](O)[C@@H]1O  inhibition (Ribosomal protein S6 kinase alpha-2, kinase domain 1 (RPS6KA2, Homo sapiens, UniProt Q15349); ATP probe labelling, inhibitor, KiNativ profiling; 1 µM): 3.4%
Cc1cc(Oc2nc(N3CC[C@@H](c4ccncc4)C3)ncc2F)[nH]n1  normalised growth (Mycobacterium tuberculosis; OD; H37Rv PurF CRISPRi knockdown; 1.5e-05 µM, with: anhydrotetracycline low): 98% and 96% and 100%
CS(C)(=O)=Nc1ccc(-c2ccc(-c3nc4cc(O[C@@H]5CO[C@H]6[C@@H]5OC[C@H]6O)[nH]c4cc3F)cc2)cc1  inhibition (Nociceptin receptor (OPRL1, Homo sapiens, UniProt P41146); calcium signal, antagonist; 10 µM): -1%
COc1ccccc1-c1n[nH]c2nc(NC3CCN(C(=O)Cc4ccc(F)cc4F)CC3)ncc12  relative abundance (bead binding, competition bead pull-down, item: LINJ.35.1490; Leishmania donovani extract; 10 µM; relative to: vehicle): 1.1
Nc1ncc(-c2cc(-c3cnn(CC(F)(F)F)c3)ncc2F)nc1C(=O)NC1CNCC(F)C1 (stereo not drawn)  remaining binding (FLT3 ITD F691L; KINOMEscan; 1 µM): 45%
CC[C@H](C)[C@@H]([C@@H](CC(=O)N1CCC[C@H]1[C@H](OC)[C@@H](C)C(=O)N[C@H](C)[C@@H](O)c1ccccc1)OC)N(C)C(=O)[C@@H](NC(=O)[C@H](C(C)C)N(C)C(=O)OCc1ccc(NC(=O)[C@H](CCCNC(N)=O)NC(=O)[C@@H](NC(=O)CCCCCN2C(=O)CC(SC[C@H](NC(=O)[C@H](CC(=O)O)NC(=O)[C@H](Cc3ccc(O)cc3)NC(=O)[C@H](Cc3c[nH]c4ccccc34)NC(=O)[C@@H](N)CCCNC(=N)N)C(=O)O)C2=O)C(C)C)cc1)C(C)C (stereo partly drawn)  concentration (C57BL/6 mouse, healthy, spleen; intraperitoneal, 2.5 mg/kg, 24 h): not detected
CCCCSC(SCCCC)c1ccc(OCCNS(=O)(=O)c2ccc(F)cc2)c(OC)c1  EC50 (Tobacco mosaic virus; protective activity; plant in vivo): 269 ± 3.7 µg/mL (≈ 522 µM)
O=C1NC(=O)c2c1c1cc(F)c[n+]3c1c1c2c2cc(O)ccc2[n]1[Ru-4]312([N]=C=S)[S+]3CC[S+]1CC[S+]2CC3 (stereo not drawn)  remaining activity (Ribosomal protein S6 kinase alpha-2 (RPS6KA2, Homo sapiens, UniProt Q15349); enzyme activity; 100 nM, human enzyme, with: 10 µM ATP; relative to: untreated): 5%
COc1cc(C(SC(C)C)SC(C)C)ccc1OCCNS(=O)(=O)c1ccc(Br)cc1  EC50 (tobacco mosaic virus; curative activity; in vivo plant): 183 ± 3.2 µg/mL (≈ 334 µM)
N[C@H](C(=O)N1CCCC1)C1CCN(c2nccc3c(-c4ncc(Cl)cc4Cl)cccc23)CC1  response (Thyrotropin-releasing hormone receptor (TRHR, Homo sapiens, UniProt P34981); functional response, agonist; 10 µM): 4%
CC[C@H](C)[C@H](NC(=O)[C@H](CO)NC(=O)[C@H](Cc1ccc(O)cc1)NC(=O)[C@H](Cc1ccc(O)cc1)NC(=O)[C@H](CC(N)=O)NC(=O)CNC(=O)[C@H](CO)NC(=O)[C@H](Cc1ccc(O)cc1)NC(=O)[C@H](CO)NC(=O)[C@H](CO)NC(=O)[C@H](CC(N)=O)NC(=O)COCCOCCNC(=O)CN1CCN(CC(=O)O)CCN(CC(=O)O)CCN(CC(=O)O)CC1)C(=O)N[C@@H](CC(C)C)C(N)=O [copper-64 labelled]  tumour uptake (dynamic PET; mouse, tamoxifen-induced PDAC, tumor; intravenous, 0.1 µg/mouse, 1.4 min): 15.7 %ID/mL
N=C(N)NCCC[C@@H]1NC(=O)[C@H](CCCCNC(=O)CCC(NC(=S)Nc2ccc(CC3CN(CC(=O)O)CCN(CC(=O)O)CCN(CC(=O)O)CCN3CC(=O)O)cc2)C(=O)NCCCC[C@@H]2NC(=O)[C@@H](Cc3ccc(O)cc3)NC(=O)[C@H](CC(=O)O)NC(=O)CNC(=O)[C@H](CCCNC(=N)N)NC2=O)NC(=O)[C@@H](Cc2ccc(O)cc2)NC(=O)[C@H](CC(=O)O)NC(=O)CNC1=O (stereo partly drawn) [scandium-44 labelled]  tissue uptake (ex vivo γ-counting; female athymic nude mice, U-87 MG xenograft, intestine; intravenous, 4 h): 1.58 ± 1.02 %ID/g
CC(C)[C@H]1NC(=O)C[C@H]2/C=C/CCSSC[C@@H](NC1=O)C(=O)N[C@H](Cc1cccc3ccccc13)C(=O)NCC(=O)O2  inhibition (Mitogen-activated protein kinase kinase kinase 12 (MAP3K12, Homo sapiens, UniProt Q12852); enzyme activity, inhibitor; 10 µM): 9.3%
O=C(O)c1ccc(-c2nc(-c3ccccc3Cl)c3sccn23)cc1  platelet count change (C57BL/6 mice; dose not given, days 3 and 4 pooled, basal hematopoiesis): 174% and 106% and 93.9% and 160% and 105% and 90.7% and 132%
CCCSC(SCCC)c1ccc(OCCNS(=O)(=O)c2ccc(Cl)cc2)c(OC)c1  EC50 (Tobacco mosaic virus; protective activity; plant in vivo): 211 ± 4.2 µg/mL (≈ 418 µM)
CN1C(=O)C(C2C3=C(CC(C)(C)CC3=O)Oc3ccc([N+](=O)[O-])cc32)C(=O)N(C)C1=O (stereo not drawn)  mean lipid content (3T3-L1 preadipocytes; adipogenesis, Oil Red O staining; IC20, 14 days): 0.643 OD492
CC(C)[C@@H]1NC(=O)[C@@H]2CCCN2C(=O)[C@@H](C(C)C)NC(=O)[C@H]2CCCN2C(=O)[C@H](C(C)C)NC(=O)[C@@H]2CCCN2C(=O)[C@@H](C(C)C)NC(=O)[C@H]2CCCN2C(=O)[C@H](C(C)C)NC(=O)[C@@H]2CCCN2C(=O)[C@@H](C(C)C)NC(=O)[C@H]2CCCN2C1=O  bi-ionic potential (sheep lipid bilayer; 10 µM, pH 7.4, 23 °C, with: 0.1 M K+ vs Na chloride): -76 mV
CC[C@@H]1C(=O)N(C)c2cnc(Nc3ccc(C(=O)NCCCC[C@H](NC(=O)[C@@H](NC(=O)[C@H](CO)NC(=O)[C@H](Cc4cncn4CCCCCCCCc4ccccc4)NC(=O)[C@H](CC(C)C)NC(=O)[C@@H]4CCCN4C(C)=O)[C@@H](C)CP(=O)(O)O)C(N)=O)cc3OC)nc2N1C1CCCC1  recovery B-A (Caco-2; 10 µM, 2 h): 67.1%
CN(C(=O)c1ccn2ncc(-c3ccc(C(N)=O)cc3)c2c1)c1ccc(C#N)cn1  faecal Nluc luminescence (Cryptosporidium parvum; UGA1 Nluc, IFN-gamma knockout C57BL/6 mice, faeces; oral, 10 mg/kg daily, 336 h post infection, treatment days 11-17; higher means more parasites): 2340 a.u. and 98 a.u. and 3200 a.u. and 8390 a.u.
CCCSC(SCCC)c1ccc(OCCNS(=O)(=O)c2cccc(Br)c2)c(OC)c1  EC50 (Tobacco mosaic virus; protective activity; plant in vivo): 305.8 ± 2 µg/mL (≈ 557 µM)
Cc1nc2cccc(OCC(C)(C)C(=O)NC(C)C)c2c(N)c1C(=O)[O-].[Na+]  revertant colonies per plate (Salmonella typhimurium; TA1535; 0.32 mg per plate, without S9, plate incorporation): 14 ± 1

Excerpt of the above:
N=C(N)NCCC[C@@H]1NC(=O)[C@H](CCCCNC(=O)CCC(NC(=S)Nc2ccc(CC3CN(CC(=O)O)CCN(CC(=O)O)CCN(CC(=O)O)CCN3CC(=O)O)cc2)C(=O)NCCCC[C@@H]2NC(=O)[C@@H](Cc3ccc(O)cc3)NC(=O)[C@H](CC(=O)O)NC(=O)CNC(=O)[C@H](CCCNC(=N)N)NC2=O)NC(=O)[C@@H](Cc2ccc(O)cc2)NC(=O)[C@H](CC(=O)O)NC(=O)CNC1=O (stereo partly drawn) [scandium-44 labelled]  tissue uptake (ex vivo γ-counting; female athymic nude mice, U-87 MG xenograft, intestine; intravenous, 4 h): 1.58 ± 1.02 %ID/g
CC(C)SC(SC(C)C)c1ccc(OCCNS(=O)(=O)c2ccc(Br)cc2)c(Cl)c1  EC50 (Tobacco mosaic virus; protective activity; plant in vivo): 672.3 ± 3.2 µg/mL (≈ 1220 µM)
Nc1ncc(-c2cc(-c3cnn(CC(F)(F)F)c3)ncc2F)nc1C(=O)NC1CNCC(F)C1 (stereo not drawn)  remaining binding (FLT3 ITD F691L; KINOMEscan; 1 µM): 45%
CC(C)[C@@H]1NC(=O)[C@@H]2CCCN2C(=O)[C@@H](C(C)C)NC(=O)[C@H]2CCCN2C(=O)[C@H](C(C)C)NC(=O)[C@@H]2CCCN2C(=O)[C@@H](C(C)C)NC(=O)[C@H]2CCCN2C(=O)[C@H](C(C)C)NC(=O)[C@@H]2CCCN2C(=O)[C@@H](C(C)C)NC(=O)[C@H]2CCCN2C1=O  bi-ionic potential (sheep lipid bilayer; 10 µM, pH 7.4, 23 °C, with: 0.1 M K+ vs Na chloride): -76 mV
